Published values of several laboratories.
Each numbered part is a random draw from the data of one study; scales do not carry over between parts. Positions count from the first letter of the parent shown.

Sample 1
Target: ABI1, truncated, D143A, DHFR fusion (Arabidopsis thaliana)
Technique: DHFR PCA, deep sequencing
Matrix: yeast
Notes: methotrexate growth selection, single substitutions
With: (+)-ABA 0.39 µM
Reference: wild-type fitted maximum
Direction: higher = stronger binding
Measurement: relative binding score
Starting sequence: PYL1, truncated, DHFR fusion (Arabidopsis thaliana); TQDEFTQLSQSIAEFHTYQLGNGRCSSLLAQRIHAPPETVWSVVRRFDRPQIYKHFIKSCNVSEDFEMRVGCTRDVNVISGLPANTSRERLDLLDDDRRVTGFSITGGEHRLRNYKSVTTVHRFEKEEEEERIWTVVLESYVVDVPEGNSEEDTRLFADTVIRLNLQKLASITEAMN; partner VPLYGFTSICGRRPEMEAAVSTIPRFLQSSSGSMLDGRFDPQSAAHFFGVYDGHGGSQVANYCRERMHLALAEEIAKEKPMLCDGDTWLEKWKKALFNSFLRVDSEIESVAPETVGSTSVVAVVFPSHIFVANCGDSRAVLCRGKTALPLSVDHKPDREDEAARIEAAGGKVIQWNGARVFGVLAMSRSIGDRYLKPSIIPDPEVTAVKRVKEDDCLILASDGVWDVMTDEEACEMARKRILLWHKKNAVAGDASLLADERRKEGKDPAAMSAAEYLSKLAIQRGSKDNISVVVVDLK
R111T: -11.5%
Q19M: 18%
R99W: 80.8%
I105M: 3.8%
S87D: 1.21%
G148H: -0.478%
Q7F: 44.9%
R111L: 7.84%
D65T: 18.2%
S27G: 59.4%
L112M: 8.68%
L8P: -1.08%
N165F: -15.9%
S87Y: 50%
I133Q: 58.2%

Sample 2
Target: CCNF, cyclin fold, Cln2 fusion (human)
Technique: yeast growth competition, sequencing
Matrix: yeast
Notes: strong parent motif
Reference: not given
Direction: higher = stronger binding
Measurement: normalised enrichment score
Starting sequence: WEE1 docking peptide (human); HKTFRKLRLFDTP
HKTFRKLRLFDMP [T12M]: 2.7
HKTFRKLRLADTP [F10A]: 1.95
HKTFIKLRLFDTP [R5I]: 1.59
HKTSRKLRLFDTP [F4S]: 2.69
HKTFRKLRLFDNP [T12N]: 2.77
HKTFRKLPLFDTP [R8P]: 0.568
HKWFRKLRLFDTP [T3W]: 2.22
GKTFRKLRLFDTP [H1G]: 1.96
HKTFRKLRGFDTP [L9G]: 1.61
HKTYRKLRLFDTP [F4Y]: 2.79
HKTFRKQRLFDTP [L7Q]: 1.7
HKTFRKPRLFDTP [L7P]: 0.78
HKTFRKLRNFDTP [L9N]: 1.22
HKSFRKLRLFDTP [T3S]: 0.183
HKTFRPLRLFDTP [K6P]: 2.67
HKTFRKLRLFTTP [D11T]: 1.7
HKTFRKLRLFATP [D11A]: 1.72
HKFFRKLRLFDTP [T3F]: 2.72
HKTFRKDRLFDTP [L7D]: 0.119
HKTFHKLRLFDTP [R5H]: 2.48
HKTFRKLRLIDTP [F10I]: 2.09
HLTFRKLRLFDTP [K2L]: 2.31
YKTFRKLRLFDTP [H1Y]: 1.89
HKTFRKLREFDTP [L9E]: 1.24
HKTFRKRRLFDTP [L7R]: 2.13

Sample 3
Target: Interferon regulatory factor 7, full length, phosphomimetic (IRF7, Homo sapiens, UniProt Q92985, residues 1-503, S471D/S472D/S475D/S476D/S477D/S483D/S484D/S487D)
Technique: protein-binding microarray
Form: double-stranded DNA, one strand shown
Matrix: in vitro
Tested at: 2200 nM top
Notes: 60-bp whole probe
With: salmon DNA 0.4 mg/ml
Reference: random background probes
Direction: higher = stronger binding
Measurement: fitted relative affinity
Shared flanks, not repeated: GCCTAGCAC … GTCTTGATTCGCTTGACGCTGCTG
Target sequence (chain): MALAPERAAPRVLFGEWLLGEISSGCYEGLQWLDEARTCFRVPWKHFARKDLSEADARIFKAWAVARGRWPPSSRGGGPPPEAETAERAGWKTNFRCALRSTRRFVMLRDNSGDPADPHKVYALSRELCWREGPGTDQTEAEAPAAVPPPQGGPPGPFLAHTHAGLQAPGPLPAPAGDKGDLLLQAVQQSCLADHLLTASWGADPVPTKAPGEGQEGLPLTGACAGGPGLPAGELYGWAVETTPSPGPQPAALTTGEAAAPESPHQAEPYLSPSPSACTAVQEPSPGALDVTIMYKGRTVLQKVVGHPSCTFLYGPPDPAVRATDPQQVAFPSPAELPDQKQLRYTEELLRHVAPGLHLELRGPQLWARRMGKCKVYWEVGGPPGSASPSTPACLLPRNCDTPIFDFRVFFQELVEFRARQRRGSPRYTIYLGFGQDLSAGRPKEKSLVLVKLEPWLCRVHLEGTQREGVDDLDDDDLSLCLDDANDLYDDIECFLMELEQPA
TTTGATCTCAGACTGGATTAGTGCTAG: 0.281 z-score
GACGGACTGGACTATCGGGGCGTGCTA: -0.85 z-score
CAAAGAAAAAGAAAAAAAAAGGTGCTA: -1.74 z-score
TTAGGTCTCGGTATCGGTCAGTGCTAG: 0.681 z-score
TTAGGTATCGTCACTGGGTTAGTGCTA: 0.216 z-score
TTAGGACTGGACACTGGGTGAGTGCTA: -0.819 z-score
GATGGACTGCTTCTCCTGACGTGCTAG: 0.756 z-score
TTAGGACGGGACACTGGGTTAGTGCTA: -0.87 z-score
TTAGAACTGAGTATCGATTGGTGCTAG: -0.0193 z-score
GACGGTTTCCAACTGCTGACGTGCTAG: 1.84 z-score
GACGGTATCCTTATCCTGAGGTGCTAG: 0.3 z-score
TTAAGACTGGGGTTTCGGTTAGTGCTA: 3.1 z-score
TCATTAATGAAAATTCTAACTGTGCTA: -0.551 z-score
TTAGATCTCAGACTAGATTAGTGCTAG: -0.308 z-score
CCAGTTGAGCACAGGAAAGTGTGCTAG: 0.289 z-score
TGTTTTTTGGTTTCTGGTTTGTGCTAG: 5.63 z-score
TCAGCTACCTCTCTTAGACTGTGCTAG: 0.587 z-score
GACGGTATCGGGTATCGGAACGTGCTA: 0.118 z-score

Further values, each from its own experiment
PhoQ, residues 284 288 289 292 302 303 ALVSVA  fold induction (PhoP, residues 12 14 15 18 19 GHCSL (Escherichia coli, UniProt P23836); Sort-seq, item: YFP reporter; E. coli; PhoQ-PhoP variant library, with: 10 µM Mg2+; reference: high Mg2+ state, higher = stronger signaling): 17.2

Excerpt of the above (sample 3):
TTAGGACGGGACACTGGGTTAGTGCTA: -0.87 z-score
TTAGAACTGAGTATCGATTGGTGCTAG: -0.0193 z-score
TTAGGTCTCGGTATCGGTCAGTGCTAG: 0.681 z-score
TCAGCTACCTCTCTTAGACTGTGCTAG: 0.587 z-score
CCAGTTGAGCACAGGAAAGTGTGCTAG: 0.289 z-score
GACGGTTTCCAACTGCTGACGTGCTAG: 1.84 z-score
